# Measured values collected from several papers.
# Protocols differ between the studies behind these lines. Values joined by “and” are separate records of one study, mostly repeats; a detail may differ. ± gives the spread as reported.
# Organism: Plasmodium falciparum
Compound,test,test system,conditions,how to read,quantity,value
Cc1nc(-c2ccc(OCC(C)C)c(C#N)c2)sc1C(=O)O,,"FVO, purified merozoites, erythrocytes",50 µM,,merozoite invasion,100%
C=CCc1ccccc1OCC(O)CNC1(C)CCC(C(C)(C)NC(=O)CBr)CC1 (centres unmarked),,GB4,,,IC50,794 nM
Oc1ccc2c3c1O[C@H]1c4[nH]c5c(c4C[C@@]4(O)[C@@H](C2)N(CC2CC2)CC[C@]314)C[C@@]1(O)[C@H]2Cc3ccc(O)c4c3[C@@]1(CCN2CC1CC1)[C@H]5O4,,"FVO, purified merozoites, erythrocytes",50 µM,,merozoite invasion,100%
Cc1nnc(-c2ccc3ccn(CC(=O)Nc4ccccc4Cl)c3c2)o1,,Dd2 PfATP4 I398F P990R D1247Y,72 h,baseline: mutant over parental,EC50 fold shift,5 fold
Clc1cccc(C(c2ccc3[nH]cnc3c2)n2ccnc2)c1 (centres unmarked),,"FVO, purified merozoites, erythrocytes",25 µM,,merozoite invasion,64%
Cc1cc(Nc2ccc(S(F)(F)(F)(F)F)cc2)n2nc(C(C)(F)F)nc2n1,,Dd2 β5 S28L resistant,,,EC50,8.4 ± 3.7 nM
Ic1ccc(N2CCN(Cc3c[nH]c4ncccc34)CC2)cc1,,"FVO, purified merozoites, erythrocytes",25 µM,,merozoite invasion,96%
Cn1cc(-c2ccc3ccn(CC(=O)Nc4ccccc4Cl)c3c2)cn1,,Dd2 PfATP4 G358S,72 h,baseline: mutant over parental,EC50 fold shift,3 fold
O=C1C(O)=C([C@H]2CC[C@H](c3ccc(Cl)cc3)CC2)C(=O)c2ccccc21,,C2B,96 h,baseline: C2B over 3D7,resistance index,4570
O=C(CN1CCN(C(=O)c2ccco2)CC1)Nc1ccccc1Br,"parasite growth, SYBR Green",3D7 wild type,72 h,,EC50,253 ± 73 nM
CCc1nnc(-c2ccc3ccn(CC(=O)Nc4cc(OC)c(OC)c(OC)c4)c3c2)o1,,PfATP4 G358S line,"3 × EC50, day 14, barcoded pool",,barcode proportion,97%
"Cl.Oc1cccc2c1[nH]c1c(C3=CC4(O)CC/C=C\CCCCN5CCC3C3(CC6/C=C\CCCCN6C43)C5)nccc12 (single isomer, unassigned; (+))",,"W2, chloroquine-resistant",,baseline: Vero IC50 over W2 IC50,selectivity index,18
CCN(CC)CCCC(C)Nc1ccnc2cc(Cl)ccc12 (centres unmarked),,,,baseline: IC50 Dd2 over IC50 3D7,resistance index,13
O=C(NCCN1CCCC1)c1cc(-c2ccc(CN3CCOCC3)cc2)nc2ccc(F)cc12,18S rRNA qPCR,human,150 mg,,parasite clearance break point,34.3 h and 37.1 h and 28.6 h and 31.9 h and 46 h and 33.5 h
CCCCCCCCCCCCCCCC(=O)NCCO,,GB4,,,IC50,3160 nM
CC(Oc1ccc(C(=O)c2ccc(F)cc2)cc1)C(=O)N1CCc2ccccc21 (centres unmarked),"parasite growth, SYBR Green",3D7 wild type,72 h,,EC50,193 ± 33 nM
N=C(N)c1ccc(OCCCCCOc2ccc(C(=N)N)cc2)cc1,,3D7,,,IC50,100 nM
CCOCC(=O)N1CCC[C@H](C(=O)NCc2nc(-c3ccc(C#N)cc3)cs2)C1,,Dd2 β5 S27F CRISPR-edited,,,EC50,26000 ± 11000 nM
CCn1cc(-c2nc(C)no2)c(=O)c2cc(F)c(N3CCC(C)CC3)cc21,"parasite growth, [3H]hypoxanthine incorporation",Dd2,72 h,,EC50,11 nM
CN(CC(=O)Nc1ccc(N(C)c2ccc(Cl)cc2)cc1)c1ccccc1N1CCCC1=O,"parasite growth, LDH",3D7 population A,72 h,,EC50,187 nM
O=C(Nc1cccc(Cl)c1Cl)Nc1ccnc2ccccc12,"parasite growth, SYBR Green",3D7 wild type,72 h,,EC50,1290 ± 340 nM
CC1(C)N=C(N)N=C(N)N1c1ccc(Cl)cc1,"growth, [3H]-hypoxanthine uptake",FCR3,48 h,baseline: FCR3 IC50 over 3D7 IC50,resistance index,156
CC(=O)c1c(O)c(C)c(O)c2c1OC1=CC(=O)C(=C(C)NCCCC(=O)O)C(=O)C12C (centres unmarked),[3H]hypoxanthine incorporation,"K1, erythrocytic stages",concentration not given,,antiplasmodial activity,inactive
CN(C)CCCN1c2ccccc2C(C)(C)c2ccccc21,,"FVO, purified merozoites, erythrocytes",25 µM,,merozoite invasion,56%
COc1ccc(COC[C@H](C)N2C[C@@H](C)[C@H](CN(C)S(=O)(=O)c3ccc(F)cc3)OCCCCCOc3ccc(NC(=O)Nc4c(C)noc4C)cc3S2(=O)=O)cc1,asexual blood-stage growth,"Dd2, multidrug-resistant",,,GI50,856 nM
CCN(CC)CCCC(C)Nc1ccnc2cc(Cl)ccc12 (centres unmarked),"growth, [3H]-hypoxanthine uptake",Dd2,48 h,baseline: Dd2 IC50 over 3D7 IC50,resistance index,2.9
O=C(Nc1cccc(CN2CCN(C(=O)c3ccccc3)CC2)c1)c1cccs1,"parasite growth, SYBR Green",3D7 DHODH E182D,72 h,,EC50,1780 ± 330 nM
Cn1nc2c(=O)n(C3CC3)cnc2c1[C@](O)(c1cnc(C(F)(F)F)c(Cl)c1)C(F)(F)F,,"Pf3D7^0087/N9, mouse, plasma",,,unbound plasma average concentration at ED90,< 38 nM
COC(=O)[C@H]1[C@H]2C[C@@H]3c4[nH]c5cc(OC)ccc5c4CCN3C[C@H]2C[C@@H](OC(=O)c2cc(OC)c(OC)c(OC)c2)[C@@H]1OC,,HB3,,,IC50,1260 nM
CN(Cc1ccco1)c1ncnc2ccc(-c3ccoc3)cc12,"growth, SYBR green",FVO,"concentration not given, 36 h",,activity,active
O=C1C(O)=C([C@H]2CC[C@H](c3ccc(Cl)cc3)CC2)C(=O)c2ccccc21,parasite growth,,,,EC50,0.904 ± 0.23 nM
C=CCc1ccccc1OCC(O)CNC(C)C (centres unmarked),,HB3,,,IC50,12600 nM
O=C(c1ccc(Cl)cc1)N1CCCC(C(=O)N(Cc2nnc(-c3ccccc3Cl)o2)C2CC2)C1 (centres unmarked),parasite growth,Dd2,,,EC50,140 ± 18 nM
C[C@H]1[C@@H](O)O[C@@H]2O[C@@]3(C)CC[C@H]4[C@H](C)CC[C@@H]1[C@@]24OO3,ring-stage survival,5248,"700 nM, 6 h",,parasite survival,12.3%
c1cc([C@H]2CC[C@]3(CC2)OO[C@]2(O3)C3CC4CC(C3)CC2C4)ccc1OCCN1CCOCC1,,"human patients, malaria","oral, 400 mg",,lag phase duration,4 h
CC(C)(C)c1cc(C=C(C#N)C#N)cc(C(C)(C)C)c1O,,3D7,,,IC50,520 nM
Cc1cccc(C(=O)N2CCN(Cc3cccc(NC(=O)c4ccco4)c3)CC2)c1.O=C(O)C(F)(F)F,"parasite growth, SYBR Green",,72 h,baseline: 3D7-E182D over 3D7,EC50 ratio,4
CC(CCc1ccccc1)NC(C)C(O)c1ccc(O)cc1 (centres unmarked),,Dd2,,,IC50,6310 nM
Cc1cc(=O)oc2c1ccc1oc(C(O)c3ccc(Cl)cc3)c(C)c12 (centres unmarked),"parasite growth, SYBR Green",3D7 wild type,72 h,,EC50,65.1 ± 23 nM
CC(C)C[C@H](NC(=O)[C@H](Cc1c[nH]c2ccccc12)NC(=O)CN1CCOCC1)C(=O)N[C@H](/C=C/S(C)(=O)=O)Cc1c[nH]c2ccccc12,,Dd2 β5 S27F resistant,,,EC50,6.7 ± 1.4 nM
O=C(O)C1=CC(=C(c2ccc(O)c(C(=O)O)c2)c2ccc(O)c(C(=O)O)c2)C=CC1=O,,HB3,,,IC50,5010 nM

# For quick reference, copied from above:
Compound,test,test system,conditions,how to read,quantity,value
CCCCCCCCCCCCCCCC(=O)NCCO,,GB4,,,IC50,3160 nM
CC(Oc1ccc(C(=O)c2ccc(F)cc2)cc1)C(=O)N1CCc2ccccc21 (centres unmarked),"parasite growth, SYBR Green",3D7 wild type,72 h,,EC50,193 ± 33 nM
N=C(N)c1ccc(OCCCCCOc2ccc(C(=N)N)cc2)cc1,,3D7,,,IC50,100 nM
CCOCC(=O)N1CCC[C@H](C(=O)NCc2nc(-c3ccc(C#N)cc3)cs2)C1,,Dd2 β5 S27F CRISPR-edited,,,EC50,26000 ± 11000 nM
CCn1cc(-c2nc(C)no2)c(=O)c2cc(F)c(N3CCC(C)CC3)cc21,"parasite growth, [3H]hypoxanthine incorporation",Dd2,72 h,,EC50,11 nM
